Assay results of several laboratories.
Each line is one published result; not all experiments were run side by side.

| Structure (SMILES) | assay | test system | conditions | scale | measurement | value |
| --- | --- | --- | --- | --- | --- | --- |
| C[C@@H](c1ccc2nccn2c1)n1nnc2ncc(-c3cnn(C)c3)nc21 | refers to: Thrombocytopenia grade ≥3 | EGFR-mutant MET-altered NSCLC | oral, study | – | patients with treatment-related AEs | 0% |
| CNC(=O)c1cc(Oc2ccc(NC(=O)Nc3cc(C(C)(C)C)nn3-c3ccc4ncccc4c3)c(F)c2)ccn1 | – | patients | oral, dose not given, cycles 1 and 2, High AUC subgroup | – | patients with grade 1 cardiac disorders | 11% |
| Cc1cc(NC2CCN(C(=O)OC3CCN(C(=O)/C=C/CN(C)C)C3)CC2)n2ncc(C(C)C)c2n1 (stereo not shown) | – | patients with advanced solid tumours | dose not given, QD arm, any grade | – | patients with Fatigue | 33% |
| CC(C)C[C@H](NC(=O)CNC(=O)c1cc(Cl)ccc1Cl)B(O)O | refers to: Thrombocytopenia, all grades | newly diagnosed multiple myeloma patients | oral, dose not given, maintenance phase, new onset, cycle 17 or later | – | patients with adverse event | 0% |
| Cc1cc(-c2nnc(N)nc2-c2ccc(F)cc2)cc(Cl)n1 | refers to: Dizziness | other solid tumours, IO-naive | oral, 100 mg once daily, all grades | – | patients with treatment-related AE | 21.1% |
| C=CC(=O)Nc1cc(Nc2nccc(-c3cn(C)c4ccccc34)n2)c(OC)cc1N(C)CCN(C)C | refers to: treatment-related grade ≥3 Anemia | EGFR-mutant MET-altered NSCLC | oral, dose not given, all | – | patients with adverse events | 0% |
| CNC(=O)c1ccc(-c2cnc3ncc(Cc4ccc5ncccc5c4)n3n2)cc1F | refers to: Hypoalbuminemia | other cancer patients | oral, 600 mg twice daily, expansion cohort, grade 3-4 | – | patients with adverse event | 0% |
| FC(F)(F)c1ccc(CNc2ccc(Cc3c[nH]c4ncc(Cl)cc34)cn2)cn1 | refers to: aspartate aminotransferase increased | patients with TGCT | oral, 1000 mg/day, all grades | – | patients with treatment-related adverse event | 18% |
| NC(=O)N1c2ccccc2C=Cc2ccccc21 | – | male patients | oral, dose not given, on-treatment adverse events | – | patients with Alopecia | 0% |
| COc1cc(Nc2ncc3c(n2)-c2ccc(Cl)cc2C(c2c(F)cccc2OC)=NC3)ccc1C(=O)O | – | cancer patients | oral, dose not given, grade 4 any attribution, added: pembrolizumab | – | patients with respiratory failure | 4% |
| O=C(Nc1nc2cccc(-c3ccc(CN4CCS(=O)(=O)CC4)cc3)n2n1)C1CC1 | refers to: bile reflux into stomach | rheumatoid arthritis patients | oral, 150 mg once daily, 4 weeks, any relatedness | – | patients with adverse event | 0% |
| CCOc1c([C@H](C)n2nc(C)c3c(N)ncnc32)cc(Cl)c(F)c1[C@@H]1CNC(=O)C1 | refers to: QTcF change above 60 ms | previously treated B-cell malignancy | oral, 30 mg once daily, baseline QTcF ≤450 ms | reference: baseline | patients | 0% |
| C[C@@H](Nc1cc(F)cc(F)c1)c1cc(C(=O)N(C)C)cc2c(=O)cc(N3CCOCC3)oc12 | CTCAE v4, refers to: any AE | patients with advanced solid tumours | oral, dose not given, phase I dose expansion | – | patients discontinuing for AE | 5% |

Some of these lines once more:
| Structure (SMILES) | assay | test system | conditions | scale | measurement | value |
| --- | --- | --- | --- | --- | --- | --- |
| O=C(Nc1nc2cccc(-c3ccc(CN4CCS(=O)(=O)CC4)cc3)n2n1)C1CC1 | refers to: bile reflux into stomach | rheumatoid arthritis patients | oral, 150 mg once daily, 4 weeks, any relatedness | – | patients with adverse event | 0% |
| CCOc1c([C@H](C)n2nc(C)c3c(N)ncnc32)cc(Cl)c(F)c1[C@@H]1CNC(=O)C1 | refers to: QTcF change above 60 ms | previously treated B-cell malignancy | oral, 30 mg once daily, baseline QTcF ≤450 ms | reference: baseline | patients | 0% |
